Assay results from different studies.
Each line is one published result; not all experiments were run side by side. Numbers after ± are the reported error.

| Structure (SMILES) | assay | test system | conditions | Cmax |
| --- | --- | --- | --- | --- |
| CS(=O)(=O)n1cc2c(n1)CN([C@H]1CO[C@H](c3cc(F)ccc3F)[C@@H](N)C1)C2 |  | healthy male human, plasma | oral, 10 mg once weekly, day 15, fasted, geometric mean | 195 nM |
| O=C(c1ccc(OCCN2CCCCC2)cc1)c1c(-c2ccc(O[C@@H]3O[C@H](C(=O)O)[C@@H](O)[C@H](O)[C@H]3O)cc2)sc2cc(O)ccc12 |  | human, plasma | oral, 60 mg raloxifene, baseline, with water | 139 nM |
| CCOc1ccc(Cc2cc([C@@H]3S[C@H](CO)[C@@H](O)[C@H](O)[C@H]3O)c(OC)cc2C)cc1 |  | human, plasma | oral, 5 mg/day, day 1, multiple dose before breakfast | 214 ± 52 ng/mL |
| CCCCC1(CCCC)CN(c2ccccc2)c2cc(SC)c(OCC(=O)N[C@@H](C(=O)NCC(=O)O)c3ccccc3)cc2S(=O)(=O)C1 | LC-MS/MS | human, plasma | oral, 20 mg, single dose, fasted | 3.17 ng/mL |
| CCCS(=O)(=O)N[C@H]1C[C@@H](N(C)c2ncnc3[nH]ccc23)C1 |  | human, normal hepatic function | oral, 200 mg, single dose, adjusted geometric mean | 1350 ng/mL |
| O=S(=O)(c1cccc2cnccc12)N1CCCNCC1 |  | human, plasma | oral, 30 mg | 1.41 ng/mL |
| CNCc1ccc(-c2[nH]c3cc(F)cc4c3c2CCNC4=O)cc1 |  | human cancer patients, plasma | intravenous, 4 mg/m2, day 4, added: temozolomide 100 | 159 ng/mL |
| CN[C@@H]1COc2c(S(=O)(=O)NC(=O)Nc3c4c(cc5c3CCC5)CCC4)cnn2C1 |  | human | oral, 600 mg, fasted, geometric LS mean | 27600 ng/mL |
| O=C(c1cc(Cc2n[nH]c(=O)c3ccccc23)ccc1F)N1CCN(C(=O)C2CC2)CC1 |  | human patients, plasma | oral, 50 mg, day 1, alone | 1800 ± 1100 ng/mL |
| CO[C@H]1C[C@@H]2CC[C@@H](C)[C@@](O)(O2)C(=O)C(=O)N2CCCC[C@H]2C(=O)O[C@H]([C@H](C)C[C@@H]2CC[C@@H](OC(=O)C(C)(CO)CO)[C@H](OC)C2)CC(=O)[C@H](C)/C=C(\C)[C@@H](O)[C@@H](OC)C(=O)[C@H](C)C[C@H](C)/C=C/C=C/C=C/1C |  | human, whole blood | intravenous, 60 mg/m^2 weekly, cycle 1, median, added: valproic acid | 1220 ng/mL |
| CC1(C)CCC(CN2CCN(c3ccc(C(=O)NS(=O)(=O)c4ccc(NCC5CCOCC5)c([N+](=O)[O-])c4)c(Oc4cnc5[nH]ccc5c4)c3)CC2)=C(c2ccc(Cl)cc2)C1 |  | human, plasma | oral, 400 mg, steady state, added: idasanutlin 200 mg | 1110 ng/mL |
| CC(C)(Sc1ccncc1-c1ccc(C#N)c2ccccc12)C(=O)O |  | human, male, Japanese, plasma | oral, 10 mg, day 6, fed, single dose | 21.9 ng/mL |
| CCOc1cc([C@@H](CS(C)(=O)=O)N2C(=O)c3cccc(NC(C)=O)c3C2=O)ccc1OC |  | human, plasma | oral, 30 mg twice daily, steady state, mean, added: methotrexate | 564 ng/mL |
| COc1ccnc(C[S+]([O-])c2nc3ccc(OC(F)F)cc3[nH]2)c1OC (stereo not shown) |  | human, CYP2C19 poor metabolizers, plasma | oral, 40 mg/day, day 5 | 12000 ± 1800 ng/mL |
| CCCNS(=O)(=O)Nc1ncnc(OCCOc2ncc(Br)cn2)c1-c1ccc(Br)cc1 |  | human | oral, 10 mg, free combination, fasted, geometric mean, added: US-sourced tadalafil 40 mg | 168 ng/mL |
| Cc1nc(-c2ccc(OCC(C)C)c(C#N)c2)sc1C(=O)O |  | human, plasma | oral, 80 mg, added: verinurad 15 mg | 2070 ng/mL |
| CCOc1cc([C@@H](CS(C)(=O)=O)N2C(=O)c3cccc(NC(C)=O)c3C2=O)ccc1O[C@@H]1O[C@H](C(=O)O)[C@@H](O)[C@H](O)[C@H]1O |  | healthy human controls, plasma | oral, 30 mg apremilast, matched to mild impairment | 156 ng/mL |
| NCCCS(=O)(=O)O |  | human, plasma | oral, 100 mg loose-filled capsule, single dose | 769 ± 228 ng/mL |
| CC(C)c1nc(CN(C)C(=O)N[C@H](C(=O)N[C@@H](Cc2ccccc2)C[C@H](O)[C@H](Cc2ccccc2)NC(=O)OCc2cncs2)C(C)C)cs1 |  | HIV/HCV coinfected humans, plasma | oral, dose not given, steady-state median, added: lopinavir/ritonavir twice daily | 1100 ng/mL |

A few entries again:
| Structure (SMILES) | assay | test system | conditions | Cmax |
| --- | --- | --- | --- | --- |
| COc1ccnc(C[S+]([O-])c2nc3ccc(OC(F)F)cc3[nH]2)c1OC (stereo not shown) |  | human, CYP2C19 poor metabolizers, plasma | oral, 40 mg/day, day 5 | 12000 ± 1800 ng/mL |
